Published values gathered from unrelated publications.
Parts stem from different laboratories: compare values within a part only.

Set 1 — technique: aptamer microarray, sandwich; form: DNA with 2'F-ANA; sample: in vitro; tested at: 200 nM; added: Cy3 exosite-II aptamer, 400 nM; direction: higher = stronger binding
Target: Prothrombin, mature alpha-thrombin (F2, Homo sapiens, UniProt P00734)
Notes: whole 15-mer aptamer, many near background
Oligonucleotide | mean fluorescence intensity
GGTTGGTGTGGTTGG (2'F-ANA at 1 2 4 6 12 15) | 322 a.u.
GGTTGGTGTGGTTGG (2'F-ANA at 1 3 7 8 10 12 13 15) | 116 a.u.
GGTTGGTGTGGTTGG (2'F-ANA at 3 5 6 7 8 9 12 13) | 172 a.u.

Set 2 — technique: universal PBM; form: double-stranded DNA, one strand shown; sample: in vitro; tested at: not given; direction: higher = stronger binding
Target: Sal-like protein 4, full length isoform B (SALL4, Homo sapiens, UniProt Q9UJQ4-2, residues 1-616)
Notes: 8-mer, flanks averaged, mean of replicates
Oligonucleotide | E-score
ATTATCGA | 0.174
CTATAAAA | 0.288
AACTAGCG | -0.0659
GCCAGTCA | -0.153

Set 3 — technique: protein binding microarray; form: double-stranded DNA, one strand shown; sample: in vitro; tested at: not given; baseline: not given; direction: higher = stronger binding
Target: Histone acetyltransferase KAT6A, both winged helices, GST fusion (KAT6A, Homo sapiens, UniProt Q92794, residues 1-181)
Notes: 8-mer, flanks averaged, mean of 2 arrays, mostly near background
Residues (chain): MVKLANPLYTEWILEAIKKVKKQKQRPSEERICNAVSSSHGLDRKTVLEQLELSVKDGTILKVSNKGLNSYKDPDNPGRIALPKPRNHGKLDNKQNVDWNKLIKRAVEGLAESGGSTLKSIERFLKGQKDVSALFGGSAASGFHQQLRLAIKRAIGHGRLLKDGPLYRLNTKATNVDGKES
Oligonucleotide | E-score
ACAGGGCG | 0.19
AGGCCCGG | 0.125
AGCATTAG | -0.0411
ACGGGATC | 0.276
AAGGCACT | -0.196
GTTCCGGA | 0.119

Mixed results
Substance | target | assay | system | conditions | scale | endpoint | value
PhoQ, residues 284 288 289 292 302 303 SCKMEA | PhoP, residues 12 14 15 18 19 NQAHL (Escherichia coli, UniProt P23836) | Sort-seq, item: YFP reporter | E. coli | PhoQ-PhoP variant library, added: 10 µM Mg2+ | baseline: high Mg2+ state, higher = stronger signaling | fold induction | 19.3

For quick reference, copied from above (set 2):
Oligonucleotide | E-score
GCCAGTCA | -0.153
ATTATCGA | 0.174
